Measured values collected from several papers.
A part holds a random share of what one study measured. Substitutions count along the parent as printed.

Block 1 — method: RNA Bind-n-Seq; form: RNA; medium: in vitro; tested at: 200 nM; setting: whole 134-nt RNA, ends assumed; together with: 150 mM LiCl; baseline: input library; direction: higher = stronger binding; each molecule: 7-deaza-guanosine replaces G
Target: Fragile X messenger ribonucleoprotein 1, C-terminal low-complexity region (Fmr1, Mus musculus, UniProt P35922)
| Strand | log2 enrichment |
| --- | --- |
| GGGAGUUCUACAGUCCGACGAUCUGGGAGGUGGAUUUUGUUUAUUUUUUUAGCUCAUUUCCAGGGGUGGGAAUUUUUUUUUAAUAUGUGUCAUGAAUAAAGUUGUUUUUAAAAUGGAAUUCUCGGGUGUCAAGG | 0.662 |
| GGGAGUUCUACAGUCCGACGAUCCUGUGCUACACAUCGUAUGUACCGAAUCGGGGAAAAAAAGGGGUUUUUGGGGUUUUUGGGGAAAGUAUUAUGUUACGCCGUUCGGAUCUGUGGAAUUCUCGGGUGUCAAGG | -1.63 |
| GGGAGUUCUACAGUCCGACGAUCCCUGUGCUACACAUCGUAUGUACCGAAUCGGCCCCCCCGGCCCCCCCGGGGCCCCCCCGGGAAAGUAUUAUGUUACGCCGUUCGGAUCUGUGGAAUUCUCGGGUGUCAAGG | 1.2 |
| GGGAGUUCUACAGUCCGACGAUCAAGUCCUGUGCUACACAUCGUAUGUACCGAAUCGGGAAAAGGAAAAGGGAAAAGGGGAAAGUAUUAUGUUACGCCGUUCGGAUCUGCACUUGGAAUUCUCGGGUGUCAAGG | 0.377 |
| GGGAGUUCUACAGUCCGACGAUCAAGUCCUGUGCUACACAUCGUAUGUACCGAAUCGGUUUUUUUGGAAAAAGGUUUGGAAAGUAUUAUGUUACGCCGUUCGGAUCUGCACUUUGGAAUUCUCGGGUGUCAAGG | -3.74 |
| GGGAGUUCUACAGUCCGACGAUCUUGGGCUGCCCAUCACCGUGGCCCAUGUGGAUGGCCAAACCCACAUGUUAUUUGGCUCUGACCGGAUGGAGCUGCUGGCGCACCUGCUGGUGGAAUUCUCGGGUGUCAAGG | -0.931 |
| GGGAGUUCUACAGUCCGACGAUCUGGGAGGUGGAGUUUGUUUAUUUUUUUAGCUCAUUUCCAGGGGUGGGAAUUUUUUUUUAAUAUGUGUCAUGAAUAAAGUUGUUUUUGAAAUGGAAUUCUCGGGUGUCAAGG | -0.884 |
| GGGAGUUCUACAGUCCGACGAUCCACAGACAACACGCACCCACACAGACACUGAGGGAAGGGGUUGGGAUGGGGACAGGGUGCACAGCAGGGCGGGGUAGGACCCCAGCCCCUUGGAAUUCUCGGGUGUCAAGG | 0.301 |
| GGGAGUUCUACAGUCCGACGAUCCAAGUCCUGUGCUACACAUCGUAUGUACCGAAUCGGGAAAGGGAAAGGAAAGGGGAAAGUAUUAUGUUACGCCGUUCGGAUCUGCACUUCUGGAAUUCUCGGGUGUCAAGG | -0.433 |
| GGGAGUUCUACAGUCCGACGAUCGUCCUGUGCUACACAUCGUAUGUACCGAAUCGGGGCCCCCGGCCCCCGGGCCCCCGGGGAAAGUAUUAUGUUACGCCGUUCGGAUCUGCAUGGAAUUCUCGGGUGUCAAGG | -2.5 |
| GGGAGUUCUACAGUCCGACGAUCCCUGUGCUACACAUCGUAUGUACCGAAUCGGGGCCCCCCCGGGCCCCCCCGGCCCCCCCGGAAAGUAUUAUGUUACGCCGUUCGGAUCUGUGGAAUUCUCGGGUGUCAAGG | 0.854 |

Block 2 — method: competition protein-binding microarray; form: double-stranded DNA, one strand shown; medium: in vitro; tested at: 2 µM; together with: Cbf1 competitor, 0.05 µM; direction: higher = stronger binding
Target: Phosphate system positive regulatory protein PHO4, full length, GST-tagged (PHO4, Saccharomyces cerevisiae, UniProt P07270, residues 1-312)
Sequence of UniProt P07270 (whole entry, looked up): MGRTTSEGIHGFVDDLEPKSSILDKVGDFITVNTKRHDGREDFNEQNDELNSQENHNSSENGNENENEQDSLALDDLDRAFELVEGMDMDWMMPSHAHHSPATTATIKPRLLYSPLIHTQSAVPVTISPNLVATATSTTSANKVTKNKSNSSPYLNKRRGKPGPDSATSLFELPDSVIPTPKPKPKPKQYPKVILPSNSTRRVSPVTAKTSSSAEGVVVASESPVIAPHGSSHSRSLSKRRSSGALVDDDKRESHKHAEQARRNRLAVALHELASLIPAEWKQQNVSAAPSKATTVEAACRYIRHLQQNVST
Setting: whole 60-bp probe, lowest competitor level
| Strand | fluorescence intensity [a.u.] |
| --- | --- |
| TGCGCAACAACTTTTCACGTGGATTTATGTCTAGAAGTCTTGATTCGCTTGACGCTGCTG | 13700 |
| CATACCCAACCTTGCGATGTGGGTGAAGATATTTGTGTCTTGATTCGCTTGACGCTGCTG | 4770 |
| CTAACGAAGGTTTGTCACAGCACTTACAAGCCAAGTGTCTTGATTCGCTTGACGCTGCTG | 3650 |
| CATACCCAACCTTGCCTCGTGGGTGAAGATATTTGTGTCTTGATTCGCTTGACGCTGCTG | 11600 |
| GTCTTGTCTCATTGCGTTGTGGGTGTCCCCACTTCAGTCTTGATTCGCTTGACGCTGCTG | 5350 |
| AAAGCGGTAATTTGACATGTGGGTGCAGATATCTATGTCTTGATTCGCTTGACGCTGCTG | 12200 |
| TTGGGCTGGTGCGATTTCGTGGGTAGTATTCAGGACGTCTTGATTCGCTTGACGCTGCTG | 5430 |
| CTGAAAGAGAAATTGTCCGTGACGAAAAGGAAAAAGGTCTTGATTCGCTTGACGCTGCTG | 3850 |
| AGTCCGGTGTGTAGGTGCATGACAGATTGGTCCGGCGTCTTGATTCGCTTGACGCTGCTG | 5340 |
| AGCTACCGATTCCATCACGCTTCCTGGTACGGGTGCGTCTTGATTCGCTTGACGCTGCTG | 4990 |
| GTATTGGATAGCCATCACGTTGTCGAACATCCGGCTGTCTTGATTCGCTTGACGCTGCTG | 11100 |
| CGGGGTTAAGTTTGTGTAGTGGGTGGCTTGCAGCAGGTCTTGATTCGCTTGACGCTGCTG | 5010 |
| CTGCAAGGAAGTTTAAGCGTGGGTAACTTTGCTAGGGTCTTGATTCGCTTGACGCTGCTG | 7510 |
| ATACTTGAAACATTTCACGTTCCCGAAGACGTAGACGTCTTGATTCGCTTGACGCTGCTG | 8800 |
| GGATTACTGTAATTGCTCGTGTTGGATTGAGCGAAAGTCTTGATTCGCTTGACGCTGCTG | 7920 |
| GCTTCCCTATTTTTGCACGTTTTGGTTGCTCCCAAGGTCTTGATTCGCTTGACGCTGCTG | 11200 |
| TCGGAGGCCACTCACCACGGGAGGAGGCCAAGGCTGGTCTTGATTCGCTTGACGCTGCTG | 4990 |
| CGGGGTTAAGTTTGCAGGGTGGGTGGCTTGCAGCAGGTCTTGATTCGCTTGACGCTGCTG | 5180 |
| CTAACGAAGGTTTGTCACAAGACTTACAAGCCAAGTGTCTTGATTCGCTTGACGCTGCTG | 3650 |

Block 3 — target: UBE2Z UBC core domain (UniProt Q9H832); method: yeast two-hybrid; medium: yeast; setting: mostly zero background; baseline: not given; direction: higher = stronger interaction
B1: TRIM3 RING domain (UniProt O75382); chain VQPMDKQFLVCSICLDRYQCPKVLPCLHTFCERCLQNYIPAQSLTLSCPVCRQTSILPEQGV
B2: UBE4A RING domain (UniProt Q14139); chain LQQQEEETYADACDEFLDPIMSTLMCDPVVLPSSRVTVDRSTIARHLLSDQTDPFNRSPLTMDQIRPNTELKEKIQRWLAERKQQKEQLE
B3: RNF149 RING domain (UniProt Q8NC42); chain EKGIDVDAENCAVCIENFKVKDIIRILPCKHIFHRICIDPWLLDHRTCPMCKLDVIKALGYW
B4: NSMCE1 RING domain (UniProt Q8WV22); chain RETYPDAVKICNICHSLLIQGQSCETCGIRMHLPCVAKYFQSNAEPRCPHCNDYWPHEIPKV
B5: PEX2 RING domain (UniProt P28328); chain DNTLATSGKECALCGEWPTMPHTIGCEHIFCYFCAKSSFLFDVYFTCPKCGTEVHSLQPLK
B6: RFPL2 RING domain (UniProt O75678); chain MAALFQEASSCPVCSDYLEKPMSLECGCAVCLKCINSLQKEPHGEDLLCCCSSMVSRKNKIRR
B7: RNF175 RING domain (UniProt Q8N4F7); chain LPTRSLSDNICAVCGQKIIVELDEEGLIENTYQLSCNHVFHEFCIRGWCIVGKKQTCPYCKEKVDLKRMIS
B8: RNF14 RING domain (UniProt Q9UBS8); chain IKCFNSKLFLCSICFCEKLGSECMYFLECRHVYCKACLKDYFEIQIRDGQVQCLNCPEPKCPSVATPGQVK
B9: RNF43 RING domain (UniProt Q68DV7); chain SGSSCSSAPVCAICLEEFSEGQELRVISCLHEFHRNCVDPWLHQHRTCPLCMFNITEGDSFS
Construct (chain): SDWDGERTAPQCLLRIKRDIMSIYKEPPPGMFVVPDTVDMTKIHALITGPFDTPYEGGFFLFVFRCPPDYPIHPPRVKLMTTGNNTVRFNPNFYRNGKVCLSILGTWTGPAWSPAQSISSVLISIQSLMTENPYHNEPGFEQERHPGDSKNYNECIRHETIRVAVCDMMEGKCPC
| Sequence | lacZ reporter activity |
| --- | --- |
| B1 (TRIM3 RING domain) | 0 |
| B2 (UBE4A RING domain) | 0 |
| B3 (RNF149 RING domain) | 0 |
| B4 (NSMCE1 RING domain) | 0 |
| B5 (PEX2 RING domain) | 0 |
| ISNDSETLEECMVCSDMKRDTLFGPCGHIATCSLCSPRVKKCLICKEQVQSRTKIE (MIB1 RING domain (UniProt Q86YT6)) | 0 |
| QLQDEEDDSLCRICMDAVIDCVLLECGHMVTCTKCGKRMSECPICRQYVVRAVHVF (RNF34 RING domain (UniProt Q969K3)) | 0 |
| B6 (RFPL2 RING domain) | 0 |
| B7 (RNF175 RING domain) | 0 |
| B8 (RNF14 RING domain) | 0 |
| B9 (RNF43 RING domain) | 0 |
| FLKKLEQSFMCVCCQELVYQPVTTECFHNVCKDCLQRSFKAQVFSCPACRHDLGQNYIMI (UHRF2 RING domain (UniProt Q96PU4)) | 0 |

Block 4 — target: FOSB, bZIP domain (human); method: DHFR protein complementation; medium: yeast; baseline: wild-type JUN-FOS pair; direction: higher = stronger binding
Setting: single substitutions, most at no-binding floor
Starting sequence: JUN, bZIP domain (human); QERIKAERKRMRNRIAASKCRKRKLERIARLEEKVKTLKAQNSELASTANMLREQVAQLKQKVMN
| Change | binding fitness |
| --- | --- |
| L31P | -1.23 natural log |
| E33P | -1.27 natural log |
| Q41F | -1.37 natural log |
| N42E | -1.35 natural log |
| M51P | -1.32 natural log |
| L52R | -1.3 natural log |
| T48P | -1.23 natural log |
| L52C | -1.37 natural log |
| S47P | -1.43 natural log |
| L45G | -1.22 natural log |
| E44P | -1.4 natural log |
| L45T | -1.31 natural log |
| L52E | -1.25 natural log |

A few entries again (block 4):
| Change | binding fitness |
| --- | --- |
| M51P | -1.32 natural log |
| S47P | -1.43 natural log |
| L31P | -1.23 natural log |
